Measurements gathered from unrelated publications.
Each numbered part is a random draw from the data of one study; scales do not carry over between parts. Changes are numbered by the printed parent chain.

Sample 1 — technique: RNAcompete; form: RNA; matrix: in vitro; concentration: 20 nM; setting: 7-mer, probes averaged, single round; reference: mean of 7-mers; reading: higher = stronger binding
Target: PABPC1L2, full length, GST fusion (mouse, UniProt A0ABA7IW68)
Construct (chain): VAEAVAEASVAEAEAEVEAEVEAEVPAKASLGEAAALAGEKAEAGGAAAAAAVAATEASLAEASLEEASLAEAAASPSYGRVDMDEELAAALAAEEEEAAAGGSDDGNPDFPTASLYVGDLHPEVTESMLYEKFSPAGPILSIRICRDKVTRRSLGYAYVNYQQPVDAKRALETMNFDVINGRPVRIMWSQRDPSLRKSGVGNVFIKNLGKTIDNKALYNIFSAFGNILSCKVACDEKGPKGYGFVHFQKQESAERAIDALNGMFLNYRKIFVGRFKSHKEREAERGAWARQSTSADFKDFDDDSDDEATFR
| Strand | 7-mer Z-score |
| --- | --- |
| ACCGGCG | -0.15 |
| CCGGUGC | -0.228 |
| GUGAGCG | -0.153 |
| GCCCAUA | -0.28 |
| CGUUAGA | -0.171 |
| GAACGCA | 0.12 |
| UGACCAG | -0.0337 |
| CGCUUGC | -0.438 |

Sample 2 — technique: RNA Bind-n-Seq; form: RNA; matrix: in vitro; concentration: 1 µM; setting: whole 134-nt RNA, ends assumed; with: 150 mM KCl; reference: input library; reading: higher = stronger binding
Target: Ras GTPase-activating protein-binding protein 1, C-terminal RGG region (G3BP1, Homo sapiens, UniProt Q13283)
UniProt Q13283, sequence (whole entry, looked up): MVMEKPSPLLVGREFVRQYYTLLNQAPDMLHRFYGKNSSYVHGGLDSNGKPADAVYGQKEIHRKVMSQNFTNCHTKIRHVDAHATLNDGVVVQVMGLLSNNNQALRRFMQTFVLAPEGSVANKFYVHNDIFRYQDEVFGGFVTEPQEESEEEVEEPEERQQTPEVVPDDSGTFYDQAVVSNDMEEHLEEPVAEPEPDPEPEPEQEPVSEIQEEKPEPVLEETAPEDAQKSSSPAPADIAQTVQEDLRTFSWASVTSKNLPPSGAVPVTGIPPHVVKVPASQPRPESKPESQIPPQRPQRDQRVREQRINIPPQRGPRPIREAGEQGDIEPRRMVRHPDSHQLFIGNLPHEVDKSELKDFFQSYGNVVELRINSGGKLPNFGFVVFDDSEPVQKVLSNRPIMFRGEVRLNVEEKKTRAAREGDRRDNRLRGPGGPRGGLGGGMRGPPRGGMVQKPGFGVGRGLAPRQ
All sequences stand within: GGGAGUUCUACAGUCCGACGAUC … UGGAAUUCUCGGGUGUCAAGG
| Strand | log2 enrichment |
| --- | --- |
| CCUCAAGUCCUGUGCUACACAUCGUAUGUACCGAAUCGGUUGGUUGGUUGGGAAAGUAUUAUGUUACGCCGUUCGGAUCUGCACUUCCAG | -0.579 |
| CAAGUCCUGUGCUACACAUCGUAUGUACCGAAUCGGGAAAAGGGAAAAGGAAAAGGAAAGUAUUAUGUUACGCCGUUCGGAUCUGCACUU | -1.87 |
| UCCUGUGCUACACAUCGUAUGUACCGAAUCGGGAAAAAGGGGAAAAAGGGGAAAAAGGGGAAAGUAUUAUGUUACGCCGUUCGGAUCUGC | -0.052 |
| UCCUGUGCUACACAUCGUAUGUACCGAAUCGGGGCCCCCCGGGCCCCCCGGGCCCCCCGGAAAGUAUUAUGUUACGCCGUUCGGAUCUGC | -0.889 |
| CACAGACAACACGCACCCACACAGACACAGAGGGAAGGGGUUGGGAUCGGGACAGGGUGCACAGCAGGGCGGGGUAGGACCCCAGCCCCU | -0.594 |
| CCUCAAGUCCUGUGCUACACAUCGUAUGUACCGAAUCGGUGGGGUGGGUGGGGAAAGUAUUAUGUUACGCCGUUCGGAUCUGCACUUCCA | 0.991 |
| UCUCAGCAGGCGCAUCUACACUAGUGACCUGAGGAGAGAAACCCUAACCCCACAAUGGCUGCAUCUUCUCUGAAGACGAGACUGAUGCUC | -0.814 |
| UCAAGUCCUGUGCUACACAUCGUAUGUACCGAAUCGGCCCCGGCCCCGGCCCCGGAAAGUAUUAUGUUACGCCGUUCGGAUCUGCACUUC | -2.08 |

Sample 3 — technique: protein binding microarray; form: double-stranded DNA, one strand shown; matrix: in vitro; concentration: not given; reference: not given; reading: higher = stronger binding
Target: Histone acetyltransferase KAT6A, winged helix 2, GST fusion (KAT6A, Homo sapiens, UniProt Q92794, residues 85-181)
Setting: 8-mer, flanks averaged, mean of 2 arrays, mostly near background
Construct (chain): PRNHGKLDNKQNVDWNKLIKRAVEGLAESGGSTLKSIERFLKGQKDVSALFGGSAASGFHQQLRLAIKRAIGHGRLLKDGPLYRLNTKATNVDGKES
| Strand | E-score |
| --- | --- |
| AAATACCC | -0.024 |
| AAAAGTGC | -0.0998 |
| AATTATGG | 0.0694 |
| GCAGGGGC | 0.188 |
| AGCGGAAA | 0.0595 |
| TGGGTCAA | 0.0974 |
| AACCCTCA | -0.0572 |
| ACCGCACT | 0.234 |

Mixed results
Parent: viral docking peptide; KGVKRKLFAEDSS; partner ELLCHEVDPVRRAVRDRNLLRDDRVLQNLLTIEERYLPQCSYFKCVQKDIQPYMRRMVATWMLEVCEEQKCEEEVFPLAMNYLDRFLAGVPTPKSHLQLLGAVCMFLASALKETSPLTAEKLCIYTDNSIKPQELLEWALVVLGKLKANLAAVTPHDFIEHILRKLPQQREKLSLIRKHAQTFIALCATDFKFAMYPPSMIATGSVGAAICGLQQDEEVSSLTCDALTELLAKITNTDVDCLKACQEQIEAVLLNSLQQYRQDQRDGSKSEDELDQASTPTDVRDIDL
| Substitution | target | test | system | setting | how to read | quantity | value |
| --- | --- | --- | --- | --- | --- | --- | --- |
| KGVKRCLFAEDSS [K6C] | CCND2, cyclin fold, Cln2 fusion (human) | yeast growth competition, sequencing | yeast | weak parent motif | reference: not given, higher = stronger binding | normalised enrichment score | -0.107 |

Some of these lines once more (sample 2):
| Strand | log2 enrichment |
| --- | --- |
| CACAGACAACACGCACCCACACAGACACAGAGGGAAGGGGUUGGGAUCGGGACAGGGUGCACAGCAGGGCGGGGUAGGACCCCAGCCCCU | -0.594 |
| CCUCAAGUCCUGUGCUACACAUCGUAUGUACCGAAUCGGUGGGGUGGGUGGGGAAAGUAUUAUGUUACGCCGUUCGGAUCUGCACUUCCA | 0.991 |
| UCUCAGCAGGCGCAUCUACACUAGUGACCUGAGGAGAGAAACCCUAACCCCACAAUGGCUGCAUCUUCUCUGAAGACGAGACUGAUGCUC | -0.814 |
